Assay results from different studies.
Numbered parts are unrelated; each lists some results of a single study.

Series 1
Target: RNA binding protein fox-1 homolog 2, RRM domain, GST-SBP tag (RBFOX2, Homo sapiens, UniProt O43251-10, residues 100-194)
Method: RNA Bind-n-Seq
Molecule type: RNA
Sample: in vitro
Concentration: 365 nM
Notes: natural RNA segment, single round, ends assumed
Baseline: no-protein control
Reading: higher = stronger binding
All sequences stand within: GGGAGUUCUACAGUCCGACGAUC … UGGAAUUCUCGGGUGCCAA
Residues (chain): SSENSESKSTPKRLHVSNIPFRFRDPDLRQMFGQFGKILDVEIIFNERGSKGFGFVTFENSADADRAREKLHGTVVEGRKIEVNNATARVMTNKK
| Oligonucleotide | RBNS enrichment (R) |
| --- | --- |
| CCUCGCUGGGUCCAGCUGACUCUAGCGUCUGCACAGCCUUGUGUGACUCGUGGUGACCUAACCUGAGAAAGAGUGCAAUCAGAUGUUAAAGUAACUAAAUAGACUGCGGC | 0.277 |
| AUUACCAUUGAAAAAGAAGUUCCUUUGAGCAUGUAUGUGUCUGCCUCUAGGAUGAGCUCAGAGCGAGAGAUGACACAAUGCCUCACUCAGGCCCCGGGCUCCCUGGCCAC | 3.21 |
| AAAGUUACUAGUAAUGCUUUACUAAGUAGUGCAAUGAAUUUUUAUUUUUAAUCCCUGUGCCCAAUUUUGGAGUUGAGAGGGUUGUUGGUAAUAAAUGUAUGAUGUACACU | 0.476 |
| UUUAAAAAGUGACUGUUAGAACUUUUUUAGCUCUGAGUAGUGGUCCCUUUUUAAACUCCUGGAAACAUUUUUGUUACCAAAUAAAUCAUGUUUUAUGGUACUCAGCCAUC | 0.83 |
| AGAAGACAGAAGGAAAGCUGAGAGCUGGCCCGACAUGGUCUGGGACACAGAGUUGGAGCUGGCACUGAAGAUCUCCAGGGACUUCAGAGACCAAUAAAAGCCCAUAGGGA | 0.358 |
| GUUGGAGGCCAUGUAUUAUUUCAGUUCAACUGGAUGAAAUGUUAAAUAAACUCAGAAUGAAAAUAAAUUCUCUCUUUUAUUUGUACAUAAAGGAUAAAGCAGUUUGUGUG | 0.532 |
| GAGUAACAAACACUGUUCUCACUGAGUCUUCUUUCCCCAUUCUGUAGUCCUGUGGAGGAGGAGGGUCCUCCCAGGAGGACCUGUGUGUUCUUUCAAAGCCUUAGAGUGGC | 0.203 |
| AGCCUCCCGAGUAGCUGGGAUUAUGGGCGCCCACCACCAUGCCCAGCUAAUUUUUGUAUUUUUUUUUUUUAGUAGAGAUGGGGUUUCGCCAGGUUGGCCAGGCUGGUCUU | 1.7 |
| CCCGUGACUGGGCAUCCCUCACCAGCUACUUUGACAUGCACACUGCCUGACGCUUCUCCACCCAGUGAUUGUGCUCCUGUCCCAAAGCACCCCGCUCAAGUCUCCCACCC | 1.27 |

Series 2
Target: Sal-like protein 4, full length isoform A (SALL4, Homo sapiens, UniProt Q9UJQ4, residues 1-1053)
UniProt Q9UJQ4, sequence (whole entry, looked up): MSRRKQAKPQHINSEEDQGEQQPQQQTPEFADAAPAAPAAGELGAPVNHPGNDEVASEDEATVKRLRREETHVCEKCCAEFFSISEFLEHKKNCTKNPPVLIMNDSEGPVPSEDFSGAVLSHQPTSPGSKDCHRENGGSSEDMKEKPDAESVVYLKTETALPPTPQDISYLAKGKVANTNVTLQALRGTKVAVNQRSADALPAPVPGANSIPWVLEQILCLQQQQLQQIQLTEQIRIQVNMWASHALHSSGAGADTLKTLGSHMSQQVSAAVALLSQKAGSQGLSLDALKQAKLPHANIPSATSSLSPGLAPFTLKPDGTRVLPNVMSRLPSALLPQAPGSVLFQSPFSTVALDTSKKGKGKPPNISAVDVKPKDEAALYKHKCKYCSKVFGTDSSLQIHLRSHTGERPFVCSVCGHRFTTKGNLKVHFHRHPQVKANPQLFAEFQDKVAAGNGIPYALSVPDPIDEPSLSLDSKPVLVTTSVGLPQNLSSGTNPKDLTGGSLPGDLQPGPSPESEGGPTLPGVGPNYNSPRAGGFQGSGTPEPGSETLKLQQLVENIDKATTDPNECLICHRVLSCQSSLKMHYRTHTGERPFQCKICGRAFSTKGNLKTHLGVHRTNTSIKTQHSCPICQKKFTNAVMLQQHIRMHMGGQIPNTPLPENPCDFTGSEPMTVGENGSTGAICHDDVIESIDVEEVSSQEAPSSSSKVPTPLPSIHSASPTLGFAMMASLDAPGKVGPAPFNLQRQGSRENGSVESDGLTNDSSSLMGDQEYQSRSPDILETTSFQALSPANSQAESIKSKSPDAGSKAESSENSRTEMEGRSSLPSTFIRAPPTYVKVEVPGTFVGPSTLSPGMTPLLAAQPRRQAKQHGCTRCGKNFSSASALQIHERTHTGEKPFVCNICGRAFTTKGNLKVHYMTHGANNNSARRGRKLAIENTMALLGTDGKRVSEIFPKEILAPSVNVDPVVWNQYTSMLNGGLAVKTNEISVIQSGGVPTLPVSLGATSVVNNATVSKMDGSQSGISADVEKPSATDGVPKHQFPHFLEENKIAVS
Method: universal PBM
Molecule type: double-stranded DNA, one strand shown
Sample: in vitro
Concentration: 600 nM
Notes: 8-mer, flanks averaged, mean of replicates
Reading: higher = stronger binding
| Oligonucleotide | E-score |
| --- | --- |
| CGCCTCTA | -0.0935 |
| CAGTACCC | -0.191 |
| CCGCAACA | 0.0172 |
| ACTACCCC | -0.115 |
| CTGATGTA | 0.123 |
| AGACTTAC | 0.0832 |
| CTGTAAGA | 0.0348 |
| ACGCCTAT | -0.0384 |
| GACAACCC | -0.294 |
| ACATCCAG | 0.0414 |
| ACGTATCA | 0.129 |
| CAGCCCAA | -0.219 |
| ATCGATGA | 0.128 |
| CGATTGGC | -0.0435 |
| CCCAACCA | -0.0898 |
| GACTTTAC | 0.028 |
| CGCCAGAG | -0.214 |
| TCAGCCCA | -0.269 |
| CAGCCAAC | -0.138 |
| GGTGCCCA | -0.311 |
| AATCCTGA | 0.0997 |
| AACGACCG | -0.233 |
| CGGCGGGC | -0.373 |
| GCTTCATA | 0.0921 |

Series 3
Target: Centromere-binding protein 1, full length, His-tagged (CBF1, Saccharomyces cerevisiae, UniProt P17106, residues 1-351)
UniProt P17106, sequence (whole entry, looked up): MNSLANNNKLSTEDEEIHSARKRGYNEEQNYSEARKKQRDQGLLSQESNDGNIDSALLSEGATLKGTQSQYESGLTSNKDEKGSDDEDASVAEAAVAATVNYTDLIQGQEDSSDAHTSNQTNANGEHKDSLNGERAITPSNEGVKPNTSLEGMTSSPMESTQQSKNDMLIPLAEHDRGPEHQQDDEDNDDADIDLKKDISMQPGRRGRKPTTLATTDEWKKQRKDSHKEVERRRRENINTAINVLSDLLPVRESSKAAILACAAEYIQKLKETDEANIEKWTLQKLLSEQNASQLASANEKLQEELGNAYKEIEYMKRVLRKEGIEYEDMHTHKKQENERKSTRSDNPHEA
Method: competition protein-binding microarray
Molecule type: double-stranded DNA, one strand shown
Sample: in vitro
Concentration: 2 µM
Notes: whole 60-bp probe, lowest competitor level
Together with: Pho4 competitor, 0.05 µM
Reading: higher = stronger binding
All sequences stand within: … GTCTTGATTCGCTTGACGCTGCTG
| Oligonucleotide | fluorescence intensity [a.u.] |
| --- | --- |
| CTTTCCCGATCTTGTCACTTCACTTTAGCACATTTG | 71.4 |
| CTTCTGTAAATTTGTGGCGTGGGTGGACGCGCCCCG | 77.9 |
| TCCATCTTTTCTAGCACCGTGGTAGCCATATGGAGA | 77.6 |
| AAAGCGGTAATTTGTCACGTGGGTGCAGATATCTAT | 8060 |
| TTCTCTTCCGATATGACCGTGCTTTTAGCTGTTAGC | 83.7 |
| CTACATATGTGCAAGCAGGTGACGCTTTACCCTTGA | 180 |
| TGTGAGGATTATTGTCATGTGAAGGCGAGATAGGTA | 267 |
| CTAACGAAGGTTTGTCACGCCACTTACAAGCCAAGT | 254 |
| AACAACACCAGCACCTTCGTGACGGCCGATTAATGG | 69 |
| CTGGAGGGCGTAACGGCCGTGATGGGGCCTGAGCTC | 46.6 |
| CTGGTAAGTTTTTGGCCTGTGCGGGTTCATAAGGGA | 65.5 |
| GTCTTGTCTCATTTTCACGTGGTCTTCCCCACTTCA | 977 |
| CTAACGAAGGTTTGTGTCGTGGGTGACAAGCCAAGT | 77.1 |
| AACATCATAAATTAGCACGCAAACGGTAAAGAACAA | 86.3 |
| GCTTAACCGAATCCACACGGGTCTGCCATCTTCCAT | 59.8 |
| TCATATTTGACGAGTCACGTTTCTTACAATGTCTAC | 1280 |
| AAATTACTAAGTTGTCACTTCACTTACCCCGTATGA | 79.5 |
| CGGGGTTAAGTTTTTCACGTGTATTGCTTGCAGCAG | 702 |
| TGGCGTTCGACGACTCATGTGTGTTAGATTGGGACA | 75.4 |
| CAAATGATTTATACCCACGCAAAATGACATTGCAAT | 83.6 |
| TGCGCAACAACTTTTCACGTGGGGTTATGTCTAGAA | 726 |
| CTTTCCCGATCTTTGCACGTGTTTTTAGCACATTTG | 1930 |
| CTTGAAACTCCTCCACGCGTGCTTTTTCTTGTTCAG | 97 |
| CAAGTGGTGGTGATACACGTGAAGTTTTAGAGGAAA | 817 |
| CGGGCATGTTTCCGTCACATGATGGGATGGCGATGT | 714 |

Series 4
Target: RING finger protein unkempt homolog, zinc fingers 1-6, GST-SBP tag (UNK, Homo sapiens, UniProt Q9C0B0, residues 30-357)
Method: RNA Bind-n-Seq
Molecule type: RNA
Sample: in vitro
Concentration: not given
Notes: RNA with constant flanks, human-mouse chimeric sites, ends assumed
Baseline: input RNA pool
Reading: higher = stronger binding
All sequences stand within: GGGAGUUCUACAGUCCGACGAUC … CAACAGAGGAUUGAGCAUCA
Construct (chain): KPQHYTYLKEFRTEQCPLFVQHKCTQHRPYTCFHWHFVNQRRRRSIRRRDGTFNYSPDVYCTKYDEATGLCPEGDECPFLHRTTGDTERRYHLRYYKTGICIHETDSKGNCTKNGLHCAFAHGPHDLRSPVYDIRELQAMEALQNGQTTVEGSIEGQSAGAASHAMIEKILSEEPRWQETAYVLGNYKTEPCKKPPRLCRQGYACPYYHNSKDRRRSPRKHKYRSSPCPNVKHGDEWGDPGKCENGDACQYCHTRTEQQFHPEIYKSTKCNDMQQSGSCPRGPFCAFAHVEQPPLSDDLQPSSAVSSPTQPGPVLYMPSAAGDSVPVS
| Oligonucleotide | bound/input enrichment [ratio] |
| --- | --- |
| CAGGGCAUCAUCUCUCGUGCUGUUAGACACCUGUUCAAGAGUAUUGAUGAGAAAAAGACCUCAGCGAUUAAAAACGGGCUUCCUGCUCCAGAUUUUAAAGUGAAUGCCCAGUUCCUAGAG | 0.24 |
| GGGACUGAUUCAUCCCAAGGACAGGCCACCCCAUUUGAUGCCUGGACUGAUGACAGUAUGGAAGGGCCUAGUCAAAAUUUUGAAGCUGAGUCAAUUCAGGAUGCCAUGAGUAUGGAAGAG | 0.319 |
| CUGUGUGUGCUGAAUAAUGAUUUGUGAAAGAAGUUUUUCCAAGCUGUACCCAUGUACGUUAUUAUAGUUGCUGCAAAAUGUUCUUCCUGAUAUUGAUUUUAUUUGUUAACUGAAGGUCUC | 0.584 |
| UAACCACAUCAAGAUGGUUGGGAAGCUGAAGCAGAACUUACUCUUGGCGUGUCUGGUGAUUAGUUCUGUGACUGUGUUUUACCUGGGCCAGCAUGCCAUGGAGUGCCAUCACCGAAUAGA | 0.518 |
| UGGCGCCUCCCAUUUUUACUCGUGUUUUUAAGUGUAUUUUUAUAAGAUACAUGUAUUUACAAUUGAGCUUUUGUUACAUAAUGCUGAAAUGCUACUGCAAUAUUAUGAAAAUGUUUCAAU | 0.0812 |
| AGAUUCCCUCUCUUAAAACCUCCUCCGAAGUUGGAGUCUCUUACAGAUGGUUCAUCUCCUGUUAGCGUUUUAGUUUGGACCACCCAGCCUUGGACAAUUCCCGCCAACCAGGCAAUUUGC | 0.816 |
| AAAGCCCAAGUAUUUUGAAAAAACUCGAACAGAUUUGACAAGGGUAGCCAGCUUGGAGUCUAGCAACUUGCCAAUGUGUUUACCAAUCUGGGGGCUUUGUUUUUCUUUCUUCUUUCAAAU | 0.24 |
| ACACAAUAUGAGACCAACAGCAUGGACUUCAAAGUUGGGGCAGAUGGGACAGUCUUCGCCACCCGGGAGCUGCAGGUCCCCUCCGAGCAGGUGGCCUUCACGGUGACUGCAUGGGACAGC | 0.279 |
| CCAAGUGAUUCAUCCCAAGGACAGGCCACCCCAUUUGAUGCCUGGACUGAUGACAGUAUGUUAGGGCCUAGUCAAAAUGUUGAAGCUGAGUCAAUUCAGGAUGCCAUGAGUAUGGAAGAG | 0.35 |
| ACUCUUGACUCUUUCCAUCCUCUUCCUUUCCCUCUUGAUCUUCAAGGCCAUGAAUCCCAAAAUAGCUGUCUUAGUGGCUAGCACCCAAACAGAGGUGGAAUAAAUCCACCCCAGUGUCUC | 1.07 |
| UCUGGUCAUACUCGUGCGUAUGGUGUUUGCUUUGUGGACACUUCACUGGGCAAGUUUUUCAUCGGCCAGUUUUCGGAUGAUCGCCAUUGUUCCAGAUUUAGGACGCUAGUGGCUCACUAU | 0.214 |

For quick reference, copied from above (series 3):
| Oligonucleotide | fluorescence intensity [a.u.] |
| --- | --- |
| AACATCATAAATTAGCACGCAAACGGTAAAGAACAA | 86.3 |
| GCTTAACCGAATCCACACGGGTCTGCCATCTTCCAT | 59.8 |
| TCATATTTGACGAGTCACGTTTCTTACAATGTCTAC | 1280 |
| AAATTACTAAGTTGTCACTTCACTTACCCCGTATGA | 79.5 |
| CGGGGTTAAGTTTTTCACGTGTATTGCTTGCAGCAG | 702 |
| TGGCGTTCGACGACTCATGTGTGTTAGATTGGGACA | 75.4 |
| CAAATGATTTATACCCACGCAAAATGACATTGCAAT | 83.6 |
| TGCGCAACAACTTTTCACGTGGGGTTATGTCTAGAA | 726 |
| CTTTCCCGATCTTTGCACGTGTTTTTAGCACATTTG | 1930 |
| CTTGAAACTCCTCCACGCGTGCTTTTTCTTGTTCAG | 97 |
